Measured values from different studies.
Each numbered part is a random draw from the data of one study; scales do not carry over between parts.

Study 1
Target: Centromere-binding protein 1, full length, N-terminal tag (CBF1, Saccharomyces cerevisiae, UniProt P17106, residues 1-351)
UniProt P17106, sequence (whole entry, looked up): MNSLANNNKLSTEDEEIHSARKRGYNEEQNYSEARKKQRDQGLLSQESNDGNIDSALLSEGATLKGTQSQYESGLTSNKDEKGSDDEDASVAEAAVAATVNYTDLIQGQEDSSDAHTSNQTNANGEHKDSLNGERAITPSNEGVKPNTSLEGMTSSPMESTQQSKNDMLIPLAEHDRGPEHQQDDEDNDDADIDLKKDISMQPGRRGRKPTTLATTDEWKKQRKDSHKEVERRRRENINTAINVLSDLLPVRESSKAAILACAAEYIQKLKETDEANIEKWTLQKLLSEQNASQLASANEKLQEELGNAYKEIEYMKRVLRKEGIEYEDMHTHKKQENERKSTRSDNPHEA
Method: protein-binding microarray
Form: double-stranded DNA, one strand shown
Sample: in vitro
Concentration: 0.8 µM
Setting: whole 60-bp probe, no competitor
Reading: higher = stronger binding
Quantity: fluorescence intensity
TGTACGAAGCTATAGCGTGCGTTTATAGTAGTTAGGGTCTTGATTCGCTTGACGCTGCTG: 556 a.u.
GAATTTATAGGTTCACATGATATGAGTATAAATTAGGTCTTGATTCGCTTGACGCTGCTG: 1420 a.u.
GAATAATATTCAGTCCGGGTGATGCTGTCATCTTAGGTCTTGATTCGCTTGACGCTGCTG: 536 a.u.
GAATTTATATGCAATTTCGTGATCTGGGCGGTTTAGGTCTTGATTCGCTTGACGCTGCTG: 574 a.u.

Study 2
Target: Interferon regulatory factor 5, full length, phosphomimetic (IRF5, Homo sapiens, UniProt Q13568-2, residues 1-514, K96S/S451D/S453D/S456D/S462D)
Method: protein-binding microarray
Form: double-stranded DNA, one strand shown
Sample: in vitro
Concentration: 250 nM
Setting: 60-bp whole probe
With: salmon DNA 0.4 mg/ml
Reference: random background probes
Reading: higher = stronger binding
Quantity: log fluorescence
All sequences stand within: GCCTAGCAC … GTCTTGATTCGCTTGACGCTGCTG
TGTCATATACACATCTTCTGGTGCTAG: 0.382 z-score
GACGGTATCGGGACTGGGGAGGTGCTA: 1.18 z-score
CTGGCTTTGACTCTTTCTGTGTGCTAG: 0.718 z-score
TTAGGATTCGGTATCGGTTAGTGCTAG: 5.98 z-score
GACGGTTTCGTTTTCCTGACGTGCTAG: 6.99 z-score
GACGGACTGCTACTGCTGAGGTGCTAG: -0.653 z-score
TTAGGTATCGGGTATCGTTTAGTGCTA: 5.46 z-score
GACGGACTGGACTTTCGAGACGTGCTA: 3.36 z-score

Study 3
Cell line: HEK-293T
Observed: pseudovirus infection
Method: FDA-approved drug library screen
Organism: VSV pseudotyped with SARS-CoV-2 spike
Concentration: 10 µM
Time: 16 h
Reference: vehicle-treated
Quantity: GFP-positive cells
CCCCCCCCCCCCCCCCCCCCCCO: 77.7%
CC1CNc2c(cccc2S(=O)(=O)N[C@@H](CCCNC(=N)N)C(=O)N2CC[C@@H](C)C[C@@H]2C(=O)O)C1 (stereo partly drawn): 85.1%
CCC1(C)CC(=O)NC1=O (stereo not drawn): 74.6%
COc1ccc2nc(SCc3ncc(C)c(OC)c3C)[nH]c2c1: 91.2%

Study 4
Target: Replicase polyprotein 1ab, main protease (rep, Severe acute respiratory syndrome coronavirus 2, UniProt P0DTD1)
Observed: enzyme activity
Mode: inhibitor
Concentration: 20 µM
Setting: hit confirmation
Quantity: inhibition
CN1CCN(c2cccc(Nc3nc4c(-c5ccc(S(C)(=O)=O)cc5)cccn4n3)c2)CC1: -10.3%
Cc1cc(OI)c(C(C)C)cc1-c1cc(C(C)C)c(OI)cc1C: 2.8%
Cc1ccccc1N(C)C(=O)c1ccc([S+]([O-])c2nccs2)c([N+](=O)[O-])c1 (stereo not drawn): 100%
CS/C(N)=C(C#N)/C(C#N)=C(\N)SC: 88.8%
N=C(N)S/C=C\C(=O)O: 8.6%

Study 5
Target: Replicase polyprotein 1ab, nsp13 helicase (rep, Severe acute respiratory syndrome coronavirus 2, UniProt P0DTD1)
Mode: inhibitor
Concentration: 20 µM
Quantity: inhibition
COC(=O)C1=C(C)NC(C)=C(C(=O)OCCN2CCN(C(c3ccccc3)c3ccccc3)CC2)C1c1cccc([N+](=O)[O-])c1 (stereo not drawn): 4.83%
COc1cccc(NC(=O)/C=C/c2ccc(Cl)cc2)c1: 1.48%
CCCCCC(O)CCCC(=O)O (stereo not drawn): -2.54%
C(#CCN1CCCC1)CN1CCCC1: 3.57%
Nc1ncnc2c1c(-c1ccc(Oc3ccccc3)cc1)nn2C1CCCC1: -0.68%
Cc1cc2c(cc1C(F)(F)F)N(C(=O)Nc1ccc(Oc3cccnc3C)nc1)CC2: -3.84%
CCC[C@H](N[C@H]1CCc2cc(F)cc(F)c2C1)C(=O)Nc1cn(C(C)(C)CNCC(C)(C)C)cn1: 0.36%
COc1cccc2c1C(=O)c1c(O)c3c(c(O)c1C2=O)C[C@@](O)(C(C)=O)C[C@@H]3O[C@H]1C[C@H](N)[C@H](O)[C@H](C)O1: 87.8%
COc1cc2ncnc(Nc3ccc(O)c(Br)c3)c2cc1OC: 1.84%
CO/N=C(\C(=O)N[C@@H]1C(=O)N2C(C(=O)O)=C(C[N+]3(C)CCCC3)CS[C@H]12)c1csc(N)n1: 4.66%
C1N2CN3CN1CN(C2)C3: -4.41%
CC1(C)CC[C@]2(C(=O)O)CC[C@]3(C)[C@H](C(=O)C=C4[C@@]5(C)C=C(C#N)C(=O)C(C)(C)[C@@H]5CC[C@]43C)[C@@H]2C1: 39.2%
CC(C)=CCC/C(C)=C/CC/C(C)=C/CC[C@]1(C)CCc2cc(O)cc(C)c2O1: 3.68%
O=C1[C@H](CC[C@H](O)c2ccc(F)cc2)[C@@H](c2ccc(O)cc2)N1c1ccc(F)cc1: 7.75%
O=C(Nc1ccncc1)c1cc([N+](=O)[O-])ccc1Cl: 3.05%
Cc1ccc(C(=O)N(CCCN)[C@@H](c2oc3cc(Cl)ccc3c(=O)c2Cc2ccccc2)C(C)C)cc1: 0.9%
NC(=O)N1c2ccccc2CC(O)c2ccccc21 (stereo not drawn): 1.99%
Cc1cc(Nc2nc(N[C@@H](C)c3ccc(F)cc3)c(C#N)cc2F)n[nH]1: -2.53%
